Results gathered from unrelated publications.
Parts stem from different laboratories: compare values within a part only. ± gives the spread as reported.
Sequence of UniProt P52564 (whole entry, looked up): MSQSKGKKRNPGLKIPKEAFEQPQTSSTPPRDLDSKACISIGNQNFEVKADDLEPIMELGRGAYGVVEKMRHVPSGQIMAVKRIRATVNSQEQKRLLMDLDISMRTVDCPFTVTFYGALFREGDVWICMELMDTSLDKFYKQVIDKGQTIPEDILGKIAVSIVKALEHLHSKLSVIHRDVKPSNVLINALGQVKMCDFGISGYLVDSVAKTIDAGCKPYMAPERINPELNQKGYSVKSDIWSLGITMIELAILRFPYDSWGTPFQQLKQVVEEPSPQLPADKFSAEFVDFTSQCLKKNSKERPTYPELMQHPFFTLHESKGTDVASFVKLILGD
Sequence of UniProt P54756 (whole entry, looked up): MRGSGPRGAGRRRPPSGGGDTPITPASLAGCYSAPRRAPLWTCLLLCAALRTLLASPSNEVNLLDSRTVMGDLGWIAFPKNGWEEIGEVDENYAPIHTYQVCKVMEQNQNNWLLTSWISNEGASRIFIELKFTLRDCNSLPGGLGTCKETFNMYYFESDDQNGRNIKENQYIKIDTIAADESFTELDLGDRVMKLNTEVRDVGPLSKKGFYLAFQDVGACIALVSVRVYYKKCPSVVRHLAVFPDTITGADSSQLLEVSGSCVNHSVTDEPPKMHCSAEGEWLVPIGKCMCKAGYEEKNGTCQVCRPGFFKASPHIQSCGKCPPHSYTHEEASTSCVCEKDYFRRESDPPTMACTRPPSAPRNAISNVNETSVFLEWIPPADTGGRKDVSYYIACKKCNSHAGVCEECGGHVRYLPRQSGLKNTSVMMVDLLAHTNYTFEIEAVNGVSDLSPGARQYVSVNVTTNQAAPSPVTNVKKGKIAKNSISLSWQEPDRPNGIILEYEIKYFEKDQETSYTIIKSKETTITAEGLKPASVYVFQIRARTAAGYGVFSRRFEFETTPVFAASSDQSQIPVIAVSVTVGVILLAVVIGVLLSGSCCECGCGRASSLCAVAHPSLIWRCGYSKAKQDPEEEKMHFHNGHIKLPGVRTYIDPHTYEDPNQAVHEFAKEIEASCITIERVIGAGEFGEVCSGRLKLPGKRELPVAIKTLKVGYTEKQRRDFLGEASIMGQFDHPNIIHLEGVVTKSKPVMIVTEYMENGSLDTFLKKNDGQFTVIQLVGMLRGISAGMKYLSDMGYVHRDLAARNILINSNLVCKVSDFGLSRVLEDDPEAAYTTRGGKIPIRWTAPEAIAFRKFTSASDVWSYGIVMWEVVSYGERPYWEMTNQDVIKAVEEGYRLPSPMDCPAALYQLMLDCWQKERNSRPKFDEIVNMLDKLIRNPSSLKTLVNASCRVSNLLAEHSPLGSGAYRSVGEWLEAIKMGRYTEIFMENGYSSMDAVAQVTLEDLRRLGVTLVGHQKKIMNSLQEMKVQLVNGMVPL
Sequence of UniProt Q13555 (whole entry, looked up): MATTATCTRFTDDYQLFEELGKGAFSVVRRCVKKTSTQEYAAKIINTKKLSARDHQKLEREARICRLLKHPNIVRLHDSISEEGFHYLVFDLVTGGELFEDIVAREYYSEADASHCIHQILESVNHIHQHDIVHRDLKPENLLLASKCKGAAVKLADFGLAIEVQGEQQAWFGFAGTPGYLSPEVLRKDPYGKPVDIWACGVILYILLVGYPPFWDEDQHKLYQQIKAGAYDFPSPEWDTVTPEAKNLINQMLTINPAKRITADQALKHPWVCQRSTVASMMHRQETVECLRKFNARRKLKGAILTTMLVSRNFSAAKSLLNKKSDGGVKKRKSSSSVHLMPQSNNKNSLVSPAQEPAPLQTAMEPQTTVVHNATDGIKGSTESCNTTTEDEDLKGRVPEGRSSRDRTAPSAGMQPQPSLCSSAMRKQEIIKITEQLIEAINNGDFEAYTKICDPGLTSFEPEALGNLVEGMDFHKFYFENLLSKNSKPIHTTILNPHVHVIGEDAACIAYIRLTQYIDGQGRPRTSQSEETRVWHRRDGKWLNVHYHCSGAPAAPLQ
Sequence of UniProt Q9Y3S1 (whole entry, looked up): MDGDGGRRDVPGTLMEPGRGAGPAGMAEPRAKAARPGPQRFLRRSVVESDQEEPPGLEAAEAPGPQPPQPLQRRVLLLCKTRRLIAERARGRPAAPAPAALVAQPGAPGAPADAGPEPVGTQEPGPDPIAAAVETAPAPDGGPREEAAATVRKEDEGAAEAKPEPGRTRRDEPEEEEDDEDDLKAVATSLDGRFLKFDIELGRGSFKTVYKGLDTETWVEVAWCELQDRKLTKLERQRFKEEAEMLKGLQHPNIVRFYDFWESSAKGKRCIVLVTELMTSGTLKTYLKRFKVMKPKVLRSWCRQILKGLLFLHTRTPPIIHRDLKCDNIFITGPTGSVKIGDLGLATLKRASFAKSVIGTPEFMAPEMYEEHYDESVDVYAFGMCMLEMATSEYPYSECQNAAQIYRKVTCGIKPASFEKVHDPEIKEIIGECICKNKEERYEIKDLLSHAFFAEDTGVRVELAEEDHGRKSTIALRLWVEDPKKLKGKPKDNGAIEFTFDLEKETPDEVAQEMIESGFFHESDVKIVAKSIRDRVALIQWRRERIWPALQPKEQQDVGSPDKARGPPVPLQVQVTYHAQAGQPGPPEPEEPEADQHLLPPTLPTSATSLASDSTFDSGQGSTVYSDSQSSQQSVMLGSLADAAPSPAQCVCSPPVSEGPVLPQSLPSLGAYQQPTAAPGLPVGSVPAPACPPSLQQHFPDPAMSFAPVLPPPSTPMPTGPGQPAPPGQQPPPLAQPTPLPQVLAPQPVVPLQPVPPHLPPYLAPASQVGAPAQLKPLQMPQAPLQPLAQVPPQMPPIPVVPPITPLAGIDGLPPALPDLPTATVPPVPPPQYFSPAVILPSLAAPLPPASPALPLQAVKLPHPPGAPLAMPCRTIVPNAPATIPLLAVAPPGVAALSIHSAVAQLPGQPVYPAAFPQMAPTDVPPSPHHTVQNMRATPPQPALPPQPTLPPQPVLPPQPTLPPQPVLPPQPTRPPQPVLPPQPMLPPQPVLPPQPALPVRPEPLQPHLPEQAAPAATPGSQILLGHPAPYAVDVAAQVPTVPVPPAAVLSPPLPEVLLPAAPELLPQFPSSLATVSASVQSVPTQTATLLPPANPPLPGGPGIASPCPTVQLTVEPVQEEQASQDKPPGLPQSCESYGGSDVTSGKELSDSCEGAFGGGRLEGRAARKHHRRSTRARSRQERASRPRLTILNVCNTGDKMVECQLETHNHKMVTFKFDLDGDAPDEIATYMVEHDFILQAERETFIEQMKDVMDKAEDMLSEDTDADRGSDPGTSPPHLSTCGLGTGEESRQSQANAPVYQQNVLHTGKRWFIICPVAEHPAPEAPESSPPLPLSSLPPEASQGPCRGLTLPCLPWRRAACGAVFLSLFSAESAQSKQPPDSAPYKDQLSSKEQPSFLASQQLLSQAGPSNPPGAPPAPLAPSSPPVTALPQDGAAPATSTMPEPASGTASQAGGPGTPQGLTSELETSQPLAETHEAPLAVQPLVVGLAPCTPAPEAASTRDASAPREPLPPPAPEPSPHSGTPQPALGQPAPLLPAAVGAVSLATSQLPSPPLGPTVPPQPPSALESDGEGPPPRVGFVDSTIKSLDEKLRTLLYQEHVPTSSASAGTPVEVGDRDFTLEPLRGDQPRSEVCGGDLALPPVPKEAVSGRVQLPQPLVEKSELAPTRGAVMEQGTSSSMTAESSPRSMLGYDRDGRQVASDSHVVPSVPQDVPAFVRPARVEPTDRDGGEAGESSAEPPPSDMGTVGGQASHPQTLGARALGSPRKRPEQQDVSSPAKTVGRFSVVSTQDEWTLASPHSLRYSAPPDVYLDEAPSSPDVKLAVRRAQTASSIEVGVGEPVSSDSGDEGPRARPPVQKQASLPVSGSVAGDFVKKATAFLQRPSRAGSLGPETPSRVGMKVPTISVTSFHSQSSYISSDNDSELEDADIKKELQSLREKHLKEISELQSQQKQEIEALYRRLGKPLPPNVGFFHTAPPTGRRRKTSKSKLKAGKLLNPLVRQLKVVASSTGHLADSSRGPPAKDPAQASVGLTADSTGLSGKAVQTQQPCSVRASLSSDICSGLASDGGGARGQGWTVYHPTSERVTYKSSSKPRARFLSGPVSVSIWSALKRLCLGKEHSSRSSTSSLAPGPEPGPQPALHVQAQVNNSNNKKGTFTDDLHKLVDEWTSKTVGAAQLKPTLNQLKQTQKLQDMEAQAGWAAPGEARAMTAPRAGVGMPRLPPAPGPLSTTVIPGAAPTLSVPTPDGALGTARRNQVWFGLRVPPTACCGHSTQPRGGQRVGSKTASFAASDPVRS
Sequence of UniProt Q16566 (whole entry, looked up): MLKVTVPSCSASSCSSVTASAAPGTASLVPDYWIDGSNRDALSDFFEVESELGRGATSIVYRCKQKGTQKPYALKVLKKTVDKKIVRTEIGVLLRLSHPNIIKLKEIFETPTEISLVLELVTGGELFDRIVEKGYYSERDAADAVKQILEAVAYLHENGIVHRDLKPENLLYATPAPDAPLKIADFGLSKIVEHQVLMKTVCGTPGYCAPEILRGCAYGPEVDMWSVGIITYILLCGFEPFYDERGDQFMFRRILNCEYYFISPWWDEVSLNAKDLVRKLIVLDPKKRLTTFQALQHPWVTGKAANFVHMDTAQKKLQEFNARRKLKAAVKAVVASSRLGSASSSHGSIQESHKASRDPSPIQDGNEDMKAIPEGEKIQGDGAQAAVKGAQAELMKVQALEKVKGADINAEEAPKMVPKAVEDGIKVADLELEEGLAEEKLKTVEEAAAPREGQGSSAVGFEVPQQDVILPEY
Sequence of UniProt P48729 (whole entry, looked up): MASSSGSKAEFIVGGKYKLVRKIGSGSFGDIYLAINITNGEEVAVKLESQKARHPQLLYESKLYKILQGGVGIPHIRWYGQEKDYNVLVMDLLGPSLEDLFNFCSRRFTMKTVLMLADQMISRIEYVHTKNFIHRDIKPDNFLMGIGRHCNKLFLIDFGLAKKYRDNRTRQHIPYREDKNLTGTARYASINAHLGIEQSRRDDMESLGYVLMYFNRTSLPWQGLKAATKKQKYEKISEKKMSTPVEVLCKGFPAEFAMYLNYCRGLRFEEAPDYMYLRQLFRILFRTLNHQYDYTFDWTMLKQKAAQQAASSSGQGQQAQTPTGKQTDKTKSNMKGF

Set 1 — cell line: mouse MPNST tumor cells; method: high-content nuclear imaging; item: cell number; concentration: 10 µM; time: 12 h; notes: mean of 2 replicates; reference: plate mean; reading: higher = more cells
`CCOC(=O)c1ccc(CN(Cc2ccc(-c3cccc(S(C)(=O)=O)c3)cc2)S(=O)(=O)c2c(C)cc(C)cc2C)o1` gave a nuclei count of 0.561 z-score.
With `Cc1cccc(-c2[nH]c(C(C)(C)C)nc2-c2ccc3c(c2)OCO3)n1` the nuclei count was -1.54 z-score.
The nuclei count of `CCCNC(C)(C)COC(=O)c1ccccc1` is reported as 0.664 z-score.
`O=C1O[C@H]([C@@H](O)CO)C(O)=C1O` has a nuclei count of -0.121 z-score.
`OC1(c2ccc(Cl)c(C(F)(F)F)c2)CCN(CCCC(c2ccc(F)cc2)c2ccc(F)cc2)CC1` has a nuclei count of -5.93 z-score.
For `CCc1c(C(=O)NCCc2ccc(N3CCCCC3)cc2)[nH]c2ccc(Cl)cc12`, the nuclei count was 3.99 z-score.
For `COc1cc(C(=O)O)ccc1NC(=O)[C@@H]1N[C@@H](CC(C)(C)C)[C@](C#N)(c2ccc(Cl)cc2F)[C@H]1c1cccc(Cl)c1F`, the nuclei count was -5.26 z-score.
`CCc1nc2c(c3cc(OC)c(OC)cc13)C(=O)NC2=O` gave a nuclei count of 1.14 z-score.
The nuclei count of `C1CNCCN1` is reported as 1.79 z-score.
`CC(C)c1ccccc1S(=O)(=O)c1cc(N)c2ncccc2c1[N+](=O)[O-]` gave a nuclei count of -2.36 z-score.

Set 2 — effect on: cell-free assay; method: competition with immobilised ligand; concentration: 1 µM
Compound: CCCCN(CCCC)C(=O)CN1C[C@H](c2cc(OC)c3c(c2)OCO3)[C@@H](C(=O)O)[C@@H]1CC(C)(C)CCC
It gave 64.8% for remaining binding (Dual specificity mitogen-activated protein kinase kinase 1 (MAP2K1, Homo sapiens, UniProt Q02750)).
Epidermal growth factor receptor (EGFR, Homo sapiens, UniProt P00533, del747-752/P753S) — remaining binding: 79.8%.
Calcium/calmodulin-dependent protein kinase type II subunit gamma (CAMK2G, Homo sapiens, UniProt Q13555) — remaining binding: 100%.
Phosphatidylinositol 4-phosphate 3-kinase C2 domain-containing subunit beta (PIK3C2B, Homo sapiens, UniProt O00750) — remaining binding: 65.9%.
The remaining binding was 100% (Serine/threonine-protein kinase PAK 6 (PAK6, Homo sapiens, UniProt Q9NQU5)).
It gave 67.3% for remaining binding (Mast/stem cell growth factor receptor Kit (KIT, Homo sapiens, UniProt P10721, D816H)).
For Serine/threonine-protein kinase B-raf (BRAF, Homo sapiens, UniProt P15056): remaining binding read 90.4%.
The remaining binding was 49.9% (Phosphatidylinositol 3-kinase catalytic subunit type 3 (PIK3C3, Homo sapiens, UniProt Q8NEB9)).
The remaining binding was 100% (Phosphatidylinositol 4,5-bisphosphate 3-kinase catalytic subunit delta isoform (PIK3CD, Homo sapiens, UniProt O00329)).
The remaining binding was 100% (SRSF protein kinase 3 (SRPK3, Homo sapiens, UniProt Q9UPE1)).
It gave 100% for remaining binding (Cyclin-dependent kinase 14 (CDK14, Homo sapiens, UniProt O94921)).
For Receptor tyrosine-protein kinase erbB-3 (ERBB3, Homo sapiens, UniProt P21860): remaining binding read 100%.
For Dual specificity protein kinase CLK3 (CLK3, Homo sapiens, UniProt P49761): remaining binding read 100%.
Calcium/calmodulin-dependent protein kinase type II subunit delta (CAMK2D, Homo sapiens, UniProt Q13557) — remaining binding: 100%.
It gave 100% for remaining binding (Dual specificity mitogen-activated protein kinase kinase 6 (MAP2K6, Homo sapiens, UniProt P52564)).
It gave 100% for remaining binding (Calcium/calmodulin-dependent protein kinase type IV (CAMK4, Homo sapiens, UniProt Q16566)).

Set 3 — effect on: kinase activity
Structure (SMILES): COc1cc(C(=O)N2CCC(N3CCN(C)CC3)CC2)ccc1Nc1ncc2c(n1)N(C)c1ccccc1C(=O)N2C
It gave 90 ± 18% for remaining activity (NEK6; 1 µM).
The remaining activity was 25 ± 30% (SmMLCK; 10 µM).
MLK3; 10 µM — remaining activity: 84 ± 9%.
It gave 83 ± 11% for remaining activity (PDK1; 10 µM).
For CHK2; 10 µM: remaining activity read 13 ± 1%.
The remaining activity was 83 ± 3% (ERK2; 1 µM).
The remaining activity was 73 ± 2% (p38b MAPK; 1 µM).
EPH-B4; 1 µM — remaining activity: 90 ± 7%.
It gave 93 ± 11% for remaining activity (EPH-B2; 10 µM).

Set 4 — effect on: enzyme activity; action: inhibitor; concentration: 0.5 µM; reference: control
Structure (SMILES): Oc1cccc(-c2nc(N3CCOCC3)c3oc4ncccc4c3n2)c1
For Dual specificity mitogen-activated protein kinase kinase 6 (MAP2K6, Homo sapiens, UniProt P52564): remaining activity read 86.6%.
It gave 102% for remaining activity (Ephrin type-A receptor 5 (EPHA5, Homo sapiens, UniProt P54756)).
The remaining activity was 90.4% (Serine/threonine-protein kinase Nek4 (NEK4, Homo sapiens, UniProt P51957)).
Serine/threonine-protein kinase 38 (STK38, Homo sapiens, UniProt Q15208) — remaining activity: 99%.
The remaining activity was 94.7% (Casein kinase II subunit alpha (CSNK2A1, Homo sapiens, UniProt P68400)).
For Cyclin-dependent kinase 9, with cyclin T1 (CDK9, Homo sapiens, UniProt P50750): remaining activity read 105%.
It gave 92.6% for remaining activity (MAP kinase-interacting serine/threonine-protein kinase 2 (MKNK2, Homo sapiens, UniProt Q9HBH9)).
It gave 92% for remaining activity (Mitogen-activated protein kinase kinase kinase 10 (MAP3K10, Homo sapiens, UniProt Q02779)).
Mitogen-activated protein kinase 13 (MAPK13, Homo sapiens, UniProt O15264) — remaining activity: 97.4%.
For Mitogen-activated protein kinase kinase kinase kinase 2 (MAP4K2, Homo sapiens, UniProt Q12851): remaining activity read 93%.
For Casein kinase I isoform alpha (CSNK1A1, Homo sapiens, UniProt P48729): remaining activity read 87.9%.
Serine/threonine-protein kinase WNK2 (WNK2, Homo sapiens, UniProt Q9Y3S1) — remaining activity: 119%.
cGMP-dependent protein kinase 1 (PRKG1, Homo sapiens, UniProt Q13976) — remaining activity: 96.3%.
The remaining activity was 102% (Tyrosine-protein kinase Lyn (LYN, Homo sapiens, UniProt P07948)).
The remaining activity was 101% (Leucine-rich repeat serine/threonine-protein kinase 2 (LRRK2, Homo sapiens, UniProt Q5S007)).
For Serine/threonine-protein kinase PLK2 (PLK2, Homo sapiens, UniProt Q9NYY3): remaining activity read 94.7%.
Protein kinase C iota type (PRKCI, Homo sapiens, UniProt P41743) — remaining activity: 94.9%.
It gave 99% for remaining activity (RAC-gamma serine/threonine-protein kinase (AKT3, Homo sapiens, UniProt Q9Y243)).
